Measurements from different studies.
A part holds a random share of what one study measured.

Study 1
Target: Ras GTPase-activating protein-binding protein 1, RRM domain (G3BP1, Homo sapiens, UniProt Q13283)
UniProt Q13283, sequence (whole entry, looked up): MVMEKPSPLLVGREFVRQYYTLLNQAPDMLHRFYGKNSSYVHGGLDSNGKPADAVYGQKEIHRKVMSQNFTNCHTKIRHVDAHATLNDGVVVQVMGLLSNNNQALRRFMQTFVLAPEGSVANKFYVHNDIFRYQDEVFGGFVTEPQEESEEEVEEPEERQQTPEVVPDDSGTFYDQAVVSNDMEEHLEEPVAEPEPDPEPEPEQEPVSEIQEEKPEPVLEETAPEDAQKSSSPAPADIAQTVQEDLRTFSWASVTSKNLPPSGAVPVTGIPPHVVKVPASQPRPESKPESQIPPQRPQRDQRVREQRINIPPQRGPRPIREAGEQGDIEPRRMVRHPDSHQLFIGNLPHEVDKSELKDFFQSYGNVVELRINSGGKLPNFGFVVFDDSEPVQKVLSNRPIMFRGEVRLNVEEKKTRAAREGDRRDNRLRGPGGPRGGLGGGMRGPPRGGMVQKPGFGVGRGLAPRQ
Technique: RNA Bind-n-Seq
Molecule type: RNA
Sample: in vitro
Concentration: 1 µM
Notes: whole 134-nt RNA, ends assumed
Added: 150 mM KCl
Reference: input library
Direction: higher = stronger binding
All sequences stand within: GGGAGUUCUACAGUCCGACGAUC … UGGAAUUCUCGGGUGUCAAGG
`UGUGCUACACAUCGUAUGUACCGAAUCGGGCCCCCCCGGGGCCCCCCCGGGGCCCCCCCGGGGAAAGUAUUAUGUUACGCCGUUCGGAUC` has a log2 enrichment of -0.738.
For `CCUGUGCUACACAUCGUAUGUACCGAAUCGGGGAAAAAAGGGAAAAAAGGAAAAAAGGGGAAAGUAUUAUGUUACGCCGUUCGGAUCUGC`, the log2 enrichment was -0.0693.
The log2 enrichment of `GUCCUGUGCUACACAUCGUAUGUACCGAAUCGGGAGGGUUUUUUUGGGAAAAAAAGGGAAAGUAUUAUGUUACGCCGUUCGGAUCUGCAC` is reported as 0.0343.
`CAAGUCCUGUGCUACACAUCGUAUGUACCGAAUCGGGGAGGGGAAAGGGGUGGGGAAAGUAUUAUGUUACGCCGUUCGGAUCUGCACUUC` has a log2 enrichment of 0.947.
`CCUCAAGUCCUGUGCUACACAUCGUAUGUACCGAAUCGGGGUGGUGGGGUGGGAAAGUAUUAUGUUACGCCGUUCGGAUCUGCACUUCCA` gave a log2 enrichment of 0.149.
The log2 enrichment of `CUGUGCUACACAUCGUAUGUACCGAAUCGGGGAAAAAAAGGGGAAAGGGGUUUUUUUGGGGAAAGUAUUAUGUUACGCCGUUCGGAUCUG` is reported as 0.601.
For `UUACACCAAUGAGAAGCUGCAGCAGCUCUUCAACCACACCAUGUUCAUCCUGGAGCAGGAGGAGUACCAGCGCGAGGGCAUCGAGUGGAA`, the log2 enrichment was -0.0044.
For `UCAACAAGAGAUGUUCAAGAACUUUUGACACAAUAUACCAAGUUUGCACAGAUGGUAAAAAAGAUGGGAGGUAUCAAAGGACUUUUCAAA`, the log2 enrichment was -0.0644.
The log2 enrichment of `UGGCCCUGGUGGCAUGCGGGGAGGAAGAGGUGGCCUCAUGGAUCGUGGUGGUCCCGGUGGAGUGUUCAGAGGUGGCCGUGGUGGAGACAG` is reported as 0.718.
With `GUCCUGUGCUACACAUCGUAUGUACCGAAUCAAAUUUUUAAAUUUUUUUAAACCCAAAAAAGUAUUAUGUUACGCCGUUCGGAUCUGCAC` the log2 enrichment was -1.52.
`GUCCUGUGCUACACAUCGUAUGUACCGAAUCGGGUUUGGGUUUUUGGGAAAAAAAGGGAAAGUAUUAUGUUACGCCGUUCGGAUCUGCAC` gave a log2 enrichment of 0.259.
`CCUGUGCUACACAUCGUAUGUACCGAAUCGGGUUUUUUUGGUUUUUUUGGGUUUUUUUGGGAAAGUAUUAUGUUACGCCGUUCGGAUCUG` gave a log2 enrichment of -0.27.
The log2 enrichment of `UAACUUUAGAGGAGGAUCUGAUGGAUAUGGCAGUGGACGUGGAUUUGGGGAUGGCCAUAAUGGGUAUGGAGGAGGACCUGGAGGUGGCAA` is reported as -0.356.
For `AGUCCUGUGCUACACAUCGUAUGUACCGAAUCGGGAAAAGGGAAAAGGGAAAAGGGGAAAGUAUUAUGUUACGCCGUUCGGAUCUGCACU`, the log2 enrichment was 0.893.

Study 2
Target: Sal-like protein 4, full length isoform A (SALL4, Homo sapiens, UniProt Q9UJQ4, residues 1-1053)
UniProt Q9UJQ4, sequence (whole entry, looked up): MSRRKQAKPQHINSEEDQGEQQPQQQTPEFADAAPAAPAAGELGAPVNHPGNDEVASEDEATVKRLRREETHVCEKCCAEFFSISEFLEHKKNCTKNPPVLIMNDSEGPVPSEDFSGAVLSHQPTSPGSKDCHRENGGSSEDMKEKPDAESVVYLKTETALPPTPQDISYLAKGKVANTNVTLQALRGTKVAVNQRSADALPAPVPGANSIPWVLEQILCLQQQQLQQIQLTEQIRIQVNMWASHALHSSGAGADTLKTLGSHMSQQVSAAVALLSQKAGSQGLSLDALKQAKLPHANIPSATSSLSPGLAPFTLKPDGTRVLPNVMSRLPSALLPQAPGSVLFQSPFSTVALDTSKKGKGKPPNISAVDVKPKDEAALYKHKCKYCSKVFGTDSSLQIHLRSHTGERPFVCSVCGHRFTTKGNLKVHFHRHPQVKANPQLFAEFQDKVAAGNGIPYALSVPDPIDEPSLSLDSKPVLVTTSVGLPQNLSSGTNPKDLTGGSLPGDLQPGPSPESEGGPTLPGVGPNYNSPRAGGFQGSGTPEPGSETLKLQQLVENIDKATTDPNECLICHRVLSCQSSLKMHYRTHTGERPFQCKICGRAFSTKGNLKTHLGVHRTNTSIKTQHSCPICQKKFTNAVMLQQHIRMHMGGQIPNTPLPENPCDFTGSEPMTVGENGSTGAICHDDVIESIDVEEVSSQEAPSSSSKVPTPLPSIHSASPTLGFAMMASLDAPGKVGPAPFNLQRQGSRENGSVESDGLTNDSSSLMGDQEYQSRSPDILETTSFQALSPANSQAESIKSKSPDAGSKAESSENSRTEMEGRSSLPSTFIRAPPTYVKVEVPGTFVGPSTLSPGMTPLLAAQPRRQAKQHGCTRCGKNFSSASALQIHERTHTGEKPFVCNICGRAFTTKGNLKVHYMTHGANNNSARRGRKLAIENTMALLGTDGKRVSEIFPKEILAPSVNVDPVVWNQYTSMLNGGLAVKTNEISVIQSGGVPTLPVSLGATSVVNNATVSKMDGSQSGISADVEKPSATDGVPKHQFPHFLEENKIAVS
Technique: universal PBM
Molecule type: double-stranded DNA, one strand shown
Sample: in vitro
Concentration: 600 nM
Notes: 8-mer, flanks averaged, mean of replicates
Direction: higher = stronger binding
`GTCTTCGA` gave an E-score of -0.00769.
`ACTATCTA` gave an E-score of 0.19.
For `AGAAAACA`, the E-score was 0.232.
`ATGATGGC` gave an E-score of -0.0808.
For `GACCACTC`, the E-score was -0.251.
`CTCATATC` gave an E-score of 0.109.
`GGATGGTA` has an E-score of 0.134.
`GGAATTCA` gave an E-score of 0.126.
With `CTCTGCTC` the E-score was -0.198.
With `AGATGACA` the E-score was 0.0472.
`CAATGTCC` has an E-score of -0.189.
For `AGATAAGG`, the E-score was 0.00191.
The E-score of `CGCGTCGC` is reported as -0.27.
`GCGGTTAA` has an E-score of -0.134.
For `CCGTATGC`, the E-score was -0.211.
For `CGTGCTAG`, the E-score was -0.161.
The E-score of `CTCACATC` is reported as -0.00173.
`GAGTACTA` gave an E-score of 0.117.
`GAGAACCA` gave an E-score of -0.152.
With `GTGTAAGA` the E-score was 0.103.
`ACCTGACT` has an E-score of -0.00548.
`CAAGTGTA` has an E-score of 0.103.
`CGGATAGA` has an E-score of 0.0425.
`GCTTCGGA` gave an E-score of -0.0249.
`CATTGACG` gave an E-score of 0.0915.

Study 3
Target: Interferon regulatory factor 7, full length, phosphomimetic (IRF7, Homo sapiens, UniProt Q92985, residues 1-503, S471D/S472D/S475D/S476D/S477D/S483D/S484D/S487D)
UniProt Q92985, sequence (whole entry, unmodified, looked up): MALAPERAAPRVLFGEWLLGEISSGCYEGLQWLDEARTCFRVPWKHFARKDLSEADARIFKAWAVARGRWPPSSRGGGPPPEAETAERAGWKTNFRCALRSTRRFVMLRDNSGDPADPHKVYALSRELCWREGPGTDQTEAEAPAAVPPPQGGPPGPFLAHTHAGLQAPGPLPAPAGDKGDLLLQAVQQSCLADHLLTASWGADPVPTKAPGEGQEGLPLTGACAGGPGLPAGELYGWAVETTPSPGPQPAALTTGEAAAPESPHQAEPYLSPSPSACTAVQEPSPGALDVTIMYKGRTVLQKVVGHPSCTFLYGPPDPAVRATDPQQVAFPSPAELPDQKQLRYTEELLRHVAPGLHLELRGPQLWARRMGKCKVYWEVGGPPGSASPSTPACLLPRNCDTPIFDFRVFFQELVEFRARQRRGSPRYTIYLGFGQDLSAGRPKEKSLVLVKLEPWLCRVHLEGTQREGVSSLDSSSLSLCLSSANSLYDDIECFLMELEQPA
Technique: protein-binding microarray
Molecule type: double-stranded DNA, one strand shown
Sample: in vitro
Concentration: 2200 nM top
Notes: 60-bp whole probe
Added: salmon DNA 0.4 mg/ml
Reference: random background probes
Direction: higher = stronger binding
All sequences stand within: GCCTAGCAC … GTCTTGATTCGCTTGACGCTGCTG
`TCATTTCTGAATGCTCCCACTGTGCTA` — result for “fitted relative affinity”: 2.08 z-score.
`GACGATATCTGTCTCGAGACGTGCTAG`: “fitted relative affinity” 0.668 z-score.
`GTCGGACTGGACACTGGGGACGTGCTA`: “fitted relative affinity” -0.705 z-score.
`TTGGGTTTCGGTTTCGGTTAGTGCTAG` — result for “fitted relative affinity”: 15.1 z-score.
Under “fitted relative affinity”, `TTAGCACTGCTTCTCCTTTAGTGCTAG` is recorded as 1.09 z-score.
Under “fitted relative affinity”, `GCTTTTTCCCCCCTCACGCAGTGCTAG` is recorded as 1.46 z-score.
For `CCCATGCTGGATGAAGTACAGTGCTAG`, “fitted relative affinity” read -0.454 z-score.
`GACGGTATCCTATTCCTGACGTGCTAG`: “fitted relative affinity” 1.31 z-score.
`GACGAACTGAGACGGGAGACGTGCTAG` — result for “fitted relative affinity”: -0.165 z-score.
Under “fitted relative affinity”, `GACGAACTGGGTTTCGGGACGTGCTAG` is recorded as 1.83 z-score.
`TTAGGTTCCGGTTTCAGTTAGTGCTAG`: “fitted relative affinity” 4.68 z-score.
Under “fitted relative affinity”, `GACGGTCTCGGTCTCAGGACGTGCTAG` is recorded as -0.00583 z-score.
For `TTAGCACTGGGTATCGGTTAGTGCTAG`, “fitted relative affinity” read 0.106 z-score.
Under “fitted relative affinity”, `GACGAACTGAGTCTCTAGACGTGCTAG` is recorded as -0.0316 z-score.
For `CTCCTGCAGCTGCCCTCCTGGTGCTAG`, “fitted relative affinity” read 0.373 z-score.
For `TCAACTCTGTTTTCGCTTACTGTGCTA`, “fitted relative affinity” read 4.22 z-score.
For `TAAGGTTTCGGTCTCGGTTAGTGCTAG`, “fitted relative affinity” read 6.11 z-score.
Under “fitted relative affinity”, `AGCAAATTATATCTTATATCGTGCTAG` is recorded as -0.647 z-score.
`TTAGATCTCAGTTTCGATGAGTGCTAG`: “fitted relative affinity” 1.84 z-score.
Under “fitted relative affinity”, `GACGGACTGGACACTGAGGACGTGCTA` is recorded as -0.834 z-score.
For `GACGGATTCGGGTTTCGGGACGTGCTA`, “fitted relative affinity” read 3.26 z-score.
Under “fitted relative affinity”, `TCCATTTTGGTTTTCATTATGTGCTAG` is recorded as 3.43 z-score.
Under “fitted relative affinity”, `TCATCTAACCTCTCTAATACTGTGCTA` is recorded as 0.859 z-score.
For `GACGATTTCAGAATCGAGACGTGCTAG`, “fitted relative affinity” read 0.727 z-score.
Under “fitted relative affinity”, `TCAACATTCACCATGGCACTGTGCTAG` is recorded as 0.952 z-score.

Study 4
Target: RING finger protein unkempt homolog, zinc fingers 1-6, GST-SBP tag (UNK, Homo sapiens, UniProt Q9C0B0, residues 30-357)
UniProt Q9C0B0, sequence (30-357, looked up): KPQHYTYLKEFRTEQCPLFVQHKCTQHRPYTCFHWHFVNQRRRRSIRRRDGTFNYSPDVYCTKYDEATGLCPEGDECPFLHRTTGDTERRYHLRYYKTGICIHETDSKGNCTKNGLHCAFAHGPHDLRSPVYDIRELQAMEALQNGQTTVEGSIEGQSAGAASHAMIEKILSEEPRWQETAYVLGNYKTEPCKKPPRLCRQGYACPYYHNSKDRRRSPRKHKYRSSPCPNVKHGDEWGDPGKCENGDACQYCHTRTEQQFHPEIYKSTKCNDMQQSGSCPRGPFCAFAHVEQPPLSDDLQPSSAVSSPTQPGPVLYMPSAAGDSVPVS
Technique: RNA Bind-n-Seq
Molecule type: RNA
Sample: in vitro
Concentration: not given
Notes: RNA with constant flanks, human and mouse sites, ends assumed
Reference: input RNA pool
Direction: higher = stronger binding
All sequences stand within: GGGAGUUCUACAGUCCGACGAUC … CAACAGAGGAUUGAGCAUCA
The bound/input enrichment of `UAUGAACCACCUCUGUCCCAUACUCCCACUGCUGCCUCCUCAGCCAUUAUAGAUUGUAUCCUCUGAAACCGUGAGCCAAAAUAAACCUUACCUCCCUUGAGUUGUUUCUGUCAUGUGUUU` is reported as 1.21 ratio.
`AAUUUGGACCUUACUCAUCCAGUAGAAGAUGGAAUUUUUGAUUCUGGAAAUUUUGAGCAAUUUCUACGGGAGAAGGUUAAAGUCAAUGGCAAAACUGGAAAUCUCGGGAAUGUUGUUCAC` has a bound/input enrichment of 0.262 ratio.
`AGAUAAACUGUCCAUUCUUUCAUUUGGAAGCUAAUUAUGUAGACCAUUUAAAUGGAUAUUAUAGAUGACAACUUAAUACAAUGUUUUCUCUAGGCCUAAAGAUGUCGGAAGACCCAAGGC` gave a bound/input enrichment of 1.06 ratio.
For `UCUAAUUCACUAUUUUCAUGUUACAUUUCUGAAAUAAUUGAACUUUAGGGGCAAGAUACUACUUACUGAAGCACAGGUAAUUACUGAGAACCCACAGCCCAGCAAAUUCUAAGAGACAGU`, the bound/input enrichment was 0.41 ratio.
`UCUCCUAUGUUACCAAUGUGUAUCGUCUCCUUCUCCCUAAAGUGUACUUAAUCUUUGCUUUCUUUGCACAAUGUCUUUGGUUGCAAGUCAUAAGCCUGAGGCAAAUAAAAUUCCAGUAAU` has a bound/input enrichment of 0.18 ratio.
`AAUCUCAUGAAAGCAGAACAGAUGCAUCAAAGUUUUGUGGCUGAAACAAGUCAGCGCAUUAGUAAGUUACAGGAAGACACUUCUGCUCACCAGAAUGUUGUUGCUGAAACCUUAAGUGCC` gave a bound/input enrichment of 0.325 ratio.
`GUUAAAAGGAAGGUCAUCAUAUUCCUCAAAAAGUGCCUUCUCUGUAAAGUGGGUGAAGACCUCUGUCGUGGAUCUGUGCCUGCCUUAAUGCCGCCAGACCAUCAUGUAGCGGUGGACAUG` gave a bound/input enrichment of 0.393 ratio.
`UGUUCUAACGCUGCCUUUGCUUUAAAACAGUAUUACUUGCGUUACCUAGAAAAGUACGAGAAAGUUCAUCAUUUUGGGGAGGAUGAUGAUGAGGUACCACCAGGCAAUCCAAAGCCACAG` gave a bound/input enrichment of 0.633 ratio.
`ACGCAUGGAAUCUUCUCUGGCCCUGCCAUUUCUCGCAUCAACAAUGCAUGCUUUGAAGCAGUAGUAGUUACCAAUACCAUACCUCAGGAAGACAAGAUGAAACACUGCUCCAAAAUACAG` gave a bound/input enrichment of 0.224 ratio.
The bound/input enrichment of `AAUAAGGAAAAGUAUGGCAAACCAAAUAAACGGAAAGGUUUUAAUGAAGGAUUGUGGGAGAUAGAUAACAAUCCGAAAGUGAAAUUUUCAAGUCAACAGGCAUCAACUAAACAAUCCAAU` is reported as 0.246 ratio.
With `GAUGCAGUUAAGGAAGAAAAUCUGAAGCUAAAGUCGGAAAAUCAAGUUCUCGGACAAUAUAUAGAAAACCUCAUGUCUGCUUCUAGUGUUUUUCAAACAACUGAUACAAAAAGCAAAAGG` the bound/input enrichment was 0.233 ratio.

Some of these lines once more (study 3):
`GACGAACTGAGACGGGAGACGTGCTAG` — result for “fitted relative affinity”: -0.165 z-score.
Under “fitted relative affinity”, `GACGAACTGGGTTTCGGGACGTGCTAG` is recorded as 1.83 z-score.
`TTAGGTTCCGGTTTCAGTTAGTGCTAG`: “fitted relative affinity” 4.68 z-score.
Under “fitted relative affinity”, `GACGGTCTCGGTCTCAGGACGTGCTAG` is recorded as -0.00583 z-score.
For `TTAGCACTGGGTATCGGTTAGTGCTAG`, “fitted relative affinity” read 0.106 z-score.
Under “fitted relative affinity”, `GACGAACTGAGTCTCTAGACGTGCTAG` is recorded as -0.0316 z-score.
For `CTCCTGCAGCTGCCCTCCTGGTGCTAG`, “fitted relative affinity” read 0.373 z-score.
For `TCAACTCTGTTTTCGCTTACTGTGCTA`, “fitted relative affinity” read 4.22 z-score.
For `TAAGGTTTCGGTCTCGGTTAGTGCTAG`, “fitted relative affinity” read 6.11 z-score.
Under “fitted relative affinity”, `AGCAAATTATATCTTATATCGTGCTAG` is recorded as -0.647 z-score.
